Experimental data gathered from unrelated publications.
Numbered parts are unrelated; each lists some results of a single study. Changes are numbered by the printed parent chain.

Series 1 — technique: RNA Bind-n-Seq; form: RNA; sample: in vitro; concentration: 20 nM; notes: 6-mer, flanks averaged, single round; with: 150 mM KCl; relative to: input library; direction: higher = stronger binding; quantity: 6-mer enrichment (R)
Target: TAR DNA-binding protein 43, full length, His tag (TARDBP, Homo sapiens, UniProt Q13148, residues 1-414)
AGGUCG: 1.31
UCUAUG: 0.623
AGAGCG: 1.6
UGACUA: 0.625
UCUGCG: 0.885
UCACCU: 0.582
AUUAUU: 0.62
GGAGGU: 3.41

Series 2 — target: CRIPT, C-terminal peptide; technique: DHFR complementation, deep sequencing; sample: yeast; relative to: wild type; direction: higher = weaker binding; quantity: binding free energy change
Notes: single substitutions, model-inferred values
Starting sequence: ERBIN, PDZ domain 1 (human); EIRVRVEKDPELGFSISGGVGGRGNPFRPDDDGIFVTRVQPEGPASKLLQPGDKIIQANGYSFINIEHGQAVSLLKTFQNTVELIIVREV; partner TKNYKQTSV
G60S: 0.0855 kcal/mol
Q79R: 0.0139 kcal/mol
T77W: 0.111 kcal/mol
F14S: 0.692 kcal/mol
E89P: 0.192 kcal/mol
P10S: -0.495 kcal/mol
N59M: -0.029 kcal/mol
Q50H: 0.0863 kcal/mol

Series 3 — technique: RNA Bind-n-Seq; form: RNA; sample: in vitro; concentration: 200 nM; notes: whole 134-nt RNA, ends assumed; with: 150 mM KCl; relative to: input library; direction: higher = stronger binding; quantity: log2 enrichment
Target: Fragile X messenger ribonucleoprotein 1, C-terminal low-complexity region (Fmr1, Mus musculus, UniProt P35922)
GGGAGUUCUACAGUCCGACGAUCACCAUGCAGGUGGGCAUCUUUGGGAAGUGGGGCAAGGGGGGGAUAGGGACGGGGGUAACACUUUGGGAACAGGUGGUCCCAGGUCGUUUCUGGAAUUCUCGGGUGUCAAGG: 0.714
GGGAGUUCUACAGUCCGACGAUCAGUCCUGUGCUACACAUCGUAUGUACCGAAUCGGGGUGGGGAAAAAAAGGGGAGGGGAAAGUAUUAUGUUACGCCGUUCGGAUCUGCACUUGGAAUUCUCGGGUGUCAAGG: 0.93
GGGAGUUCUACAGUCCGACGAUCUAACUUUAGAGGAGGAUCUGAUGGAUAUGGCAGUGGACGUGGAUUUGGGGAUGGCUAUAAUGGGUAUGGAAGAGGACCUGGAGGUGGCAAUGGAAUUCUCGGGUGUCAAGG: 0.184
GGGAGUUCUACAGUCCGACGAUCUGGGAGGUGGAUUUUGUUUAUUUUUUUAGCUCAUUUCCAGGGGUGGGAAUUUUUUUUUAAUAUGUGUCAUGAAUAAAGUUGUUAUUGAAAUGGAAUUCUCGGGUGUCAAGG: 0.154
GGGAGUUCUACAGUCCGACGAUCAGUCCUGUGCUACACAUCGUAUGUACCGAAUCGGGUUUUUGGUUUUUGGGUUUUUGGAAAGUAUUAUGUUACGCCGUUCGGAUCUGCACUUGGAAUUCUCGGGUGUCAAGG: -0.584
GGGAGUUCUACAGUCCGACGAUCUCGCCCUGGUGGCAUGCGGGGAGGAAGAGGUGGCCUCAUGGAUCGUGGUGGUCCCGGUGGAAUGUUCAGAGGUGGCCGUGGUGGAGACAGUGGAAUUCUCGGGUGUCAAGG: -0.0664
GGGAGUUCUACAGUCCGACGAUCUCAAGUCCUGUGCUACACAUCGUAUGUACCGAAUCGGUUUUUUUGGAAAGGUGGAAAGUAUUAUGUUACGCCGUUCGGAUCUGCACUUCCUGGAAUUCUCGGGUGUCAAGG: -0.532
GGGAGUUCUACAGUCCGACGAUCUCCUGUGCUACACAUCGUAUGUACCGAAUCGGGGCCCCCCGGGCCCCCCGGGCCCCCCGGAAAGUAUUAUGUUACGCCGUUCGGAUCUGCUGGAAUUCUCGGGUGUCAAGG: -0.239

Mixed results
Starting sequence: PafA, mature enzyme, eGFP fusion (Elizabethkingia meningoseptica, UniProt Q9KJX5); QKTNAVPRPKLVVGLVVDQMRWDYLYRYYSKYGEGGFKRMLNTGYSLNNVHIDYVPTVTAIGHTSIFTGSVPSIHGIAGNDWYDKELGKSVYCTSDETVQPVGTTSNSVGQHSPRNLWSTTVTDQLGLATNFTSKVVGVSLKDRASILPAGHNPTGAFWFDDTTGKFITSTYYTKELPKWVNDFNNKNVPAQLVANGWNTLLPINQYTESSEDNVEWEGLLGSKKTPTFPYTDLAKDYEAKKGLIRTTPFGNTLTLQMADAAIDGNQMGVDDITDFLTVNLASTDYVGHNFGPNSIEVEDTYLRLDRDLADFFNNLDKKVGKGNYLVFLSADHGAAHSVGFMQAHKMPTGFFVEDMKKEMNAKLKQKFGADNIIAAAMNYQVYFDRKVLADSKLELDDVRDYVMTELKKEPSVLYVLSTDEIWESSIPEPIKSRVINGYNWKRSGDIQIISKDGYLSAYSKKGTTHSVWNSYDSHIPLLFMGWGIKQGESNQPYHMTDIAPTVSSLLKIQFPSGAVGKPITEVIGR
V13A
oxyanion analog dissociation constant (tungstate, free oxyanion; microfluidic competitive inhibition; in vitro, cell-free expressed; not given, derived from inhibition constants, unchanged parent 2230 nM; lower = stronger binding): 2.12 µM

Some of these lines once more (series 3):
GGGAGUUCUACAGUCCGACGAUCUAACUUUAGAGGAGGAUCUGAUGGAUAUGGCAGUGGACGUGGAUUUGGGGAUGGCUAUAAUGGGUAUGGAAGAGGACCUGGAGGUGGCAAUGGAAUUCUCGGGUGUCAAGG: 0.184
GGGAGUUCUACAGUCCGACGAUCUGGGAGGUGGAUUUUGUUUAUUUUUUUAGCUCAUUUCCAGGGGUGGGAAUUUUUUUUUAAUAUGUGUCAUGAAUAAAGUUGUUAUUGAAAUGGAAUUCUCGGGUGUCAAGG: 0.154
